Earlier results that unrelated publications cite.
Lines come from different studies, so protocols differ. ± gives the spread as reported.

Nc1ccn([C@@H]2CS[C@H](CO)O2)c(=O)n1  EC50 (hepatitis B virus; viral replication; published cell culture systems): 0.006 to 0.03 µM
COc1ccc(C(=O)Nc2c(Cl)cncc2Cl)cc1OC1CCCC1  EC50 (Trypanosoma brucei brucei; cell growth): 9.6 µM
CN[C@@H]1[C@H](O[C@@H]2OC[C@@H](O)[C@H](O)[C@H]2O)[C@@H](O)[C@H](O[C@H]2c3cc(C)c(C(=O)N[C@H](C)C(=O)O)c(O)c3-c3c(cc4c(c3O)C(=O)c3cc(OC)cc(O)c3C4=O)[C@@H]2O)O[C@@H]1C  EC50 (HIV-1; giant cell formation): ≥ 15 µM
C[C@H]1c2cccc(O)c2C(=O)C2=C(O)[C@]3(O)C(=O)C(C(N)=O)=C(O)[C@@H](N(C)C)[C@@H]3[C@@H](O)[C@@H]21  EC50 (Plasmodium falciparum; parasite growth; blood stage; together with: IPP supplementation): 3.2 µM
CC(C)Nc1nc2cc(Cl)c(Cl)cc2n1[C@H]1O[C@@H](CO)[C@H](O)[C@@H]1O  EC50 (human cytomegalovirus; viral replication): 0.35 µM
NC[C@@H]1O[C@H](O[C@H]2[C@@H](O)[C@H](O[C@@H]3[C@@H](O)[C@H](N)C[C@H](N)[C@H]3O[C@H]3O[C@H](CO)[C@@H](O)[C@H](O)[C@H]3N)O[C@@H]2CO)[C@H](N)[C@@H](O)[C@@H]1O  EC50 (Leishmania donovani; intramacrophage amastigotes): 6.6 µM
O=C(Cn1ccnc1[N+](=O)[O-])NCc1ccccc1  EC50 (Trypanosoma cruzi; trypanocidal activity; Y, trypomastigotes): 34.5 ± 7.6 µM
COc1ccc(C(=O)NN=Cc2ccc(O)c3ncccc23)cc1  EC50 (Staphylococcus aureus; bacterial growth; methicillin-resistant): 56 µM
Cc1cn([C@H]2C[C@H](N=[N+]=[N-])[C@@H](CO)O2)c(=O)[nH]c1=O  EC50 (HIV-1; X4 LAI.04, human tissue ex vivo): 0.0031 µM
CCCCCCCCCCCCCCCCOP(=O)([O-])OCC[N+](C)(C)C  EC50 (Leishmania mexicana; intracellular amastigotes): 6.83 to 10.1 µM
Nc1nc2c(ncn2/C=C2/CC2(CO)CO)c(=O)[nH]1  EC50 (human cytomegalovirus; viral replication, plaque reduction; HFF, AD169): 1.2 ± 0.8 µM
OC(Cn1cncn1)(Cn1cncn1)c1ccc(F)cc1F  EC50 (Leishmania donovani; growth; LV82 promastigote): > 100 µM
Nc1c(Cc2cccc3ccccc23)c(C2CC2)c2n(c1=O)C(n1cc(-c3ccccc3)nn1)CS2 (centres unmarked)  EC50 (Chlamydia trachomatis; infectivity; serovar L2): < 0.06 µM
CCCCCCCCCCCCCCCCOP(=O)([O-])OCC[N+](C)(C)C  EC50 (Naegleria fowleri; KUL trophozoites): 50 µM

For quick reference, copied from above:
CN[C@@H]1[C@H](O[C@@H]2OC[C@@H](O)[C@H](O)[C@H]2O)[C@@H](O)[C@H](O[C@H]2c3cc(C)c(C(=O)N[C@H](C)C(=O)O)c(O)c3-c3c(cc4c(c3O)C(=O)c3cc(OC)cc(O)c3C4=O)[C@@H]2O)O[C@@H]1C  EC50 (HIV-1; giant cell formation): ≥ 15 µM
C[C@H]1c2cccc(O)c2C(=O)C2=C(O)[C@]3(O)C(=O)C(C(N)=O)=C(O)[C@@H](N(C)C)[C@@H]3[C@@H](O)[C@@H]21  EC50 (Plasmodium falciparum; parasite growth; blood stage; together with: IPP supplementation): 3.2 µM
